Results gathered from unrelated publications.
A part holds a random share of what one study measured.
Chain of UniProt Q5VT25 (whole entry, looked up): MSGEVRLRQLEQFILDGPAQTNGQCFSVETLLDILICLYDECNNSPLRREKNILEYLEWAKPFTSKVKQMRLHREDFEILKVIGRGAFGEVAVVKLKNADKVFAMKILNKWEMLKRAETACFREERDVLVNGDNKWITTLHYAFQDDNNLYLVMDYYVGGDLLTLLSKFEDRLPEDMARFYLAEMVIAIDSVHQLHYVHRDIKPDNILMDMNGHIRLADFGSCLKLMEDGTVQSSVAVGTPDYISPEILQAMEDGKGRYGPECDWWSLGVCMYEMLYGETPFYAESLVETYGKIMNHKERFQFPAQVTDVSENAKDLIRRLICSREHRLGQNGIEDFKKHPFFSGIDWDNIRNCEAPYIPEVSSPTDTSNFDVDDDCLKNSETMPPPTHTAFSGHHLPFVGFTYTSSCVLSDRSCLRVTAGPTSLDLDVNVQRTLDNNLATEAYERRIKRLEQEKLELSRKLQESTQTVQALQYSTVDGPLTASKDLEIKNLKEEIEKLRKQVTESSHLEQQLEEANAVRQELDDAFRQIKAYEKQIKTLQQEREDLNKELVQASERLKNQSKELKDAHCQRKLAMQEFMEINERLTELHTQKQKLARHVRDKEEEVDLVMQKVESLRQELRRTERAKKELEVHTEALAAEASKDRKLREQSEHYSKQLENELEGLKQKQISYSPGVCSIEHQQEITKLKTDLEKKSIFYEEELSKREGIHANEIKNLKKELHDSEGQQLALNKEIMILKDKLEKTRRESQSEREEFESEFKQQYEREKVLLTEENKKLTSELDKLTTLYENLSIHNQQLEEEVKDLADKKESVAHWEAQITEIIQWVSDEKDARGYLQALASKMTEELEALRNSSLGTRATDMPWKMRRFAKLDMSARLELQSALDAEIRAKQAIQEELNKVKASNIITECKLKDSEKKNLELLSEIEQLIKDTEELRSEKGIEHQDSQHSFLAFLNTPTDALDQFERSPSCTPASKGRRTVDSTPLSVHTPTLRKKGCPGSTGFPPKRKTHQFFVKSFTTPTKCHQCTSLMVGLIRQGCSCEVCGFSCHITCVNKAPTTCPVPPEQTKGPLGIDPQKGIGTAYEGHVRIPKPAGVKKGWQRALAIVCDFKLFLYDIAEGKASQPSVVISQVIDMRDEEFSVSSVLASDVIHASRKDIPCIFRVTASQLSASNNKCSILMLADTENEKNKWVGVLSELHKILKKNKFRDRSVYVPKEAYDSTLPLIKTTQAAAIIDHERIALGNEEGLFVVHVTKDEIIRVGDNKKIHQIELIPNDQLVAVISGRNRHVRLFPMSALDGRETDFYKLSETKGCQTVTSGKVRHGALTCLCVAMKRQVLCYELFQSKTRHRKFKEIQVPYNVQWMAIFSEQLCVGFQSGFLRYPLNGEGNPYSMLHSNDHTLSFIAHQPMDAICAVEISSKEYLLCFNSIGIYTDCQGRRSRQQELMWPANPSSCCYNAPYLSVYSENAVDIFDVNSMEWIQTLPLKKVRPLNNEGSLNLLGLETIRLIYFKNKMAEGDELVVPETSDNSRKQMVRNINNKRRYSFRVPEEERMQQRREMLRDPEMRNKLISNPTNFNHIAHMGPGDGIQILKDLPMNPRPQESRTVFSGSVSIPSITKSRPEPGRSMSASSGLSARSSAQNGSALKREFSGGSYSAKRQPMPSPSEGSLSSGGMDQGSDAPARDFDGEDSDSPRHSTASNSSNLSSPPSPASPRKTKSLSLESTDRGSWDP

Block 1
Target: PABPC1L2, full length, GST fusion (mouse, UniProt A0ABA7IW68)
Method: RNAcompete
Form: RNA
Matrix: in vitro
Concentration: 20 nM
Notes: 7-mer, probes averaged, single round
Reference: mean of 7-mers
Reading: higher = stronger binding
Residues (chain): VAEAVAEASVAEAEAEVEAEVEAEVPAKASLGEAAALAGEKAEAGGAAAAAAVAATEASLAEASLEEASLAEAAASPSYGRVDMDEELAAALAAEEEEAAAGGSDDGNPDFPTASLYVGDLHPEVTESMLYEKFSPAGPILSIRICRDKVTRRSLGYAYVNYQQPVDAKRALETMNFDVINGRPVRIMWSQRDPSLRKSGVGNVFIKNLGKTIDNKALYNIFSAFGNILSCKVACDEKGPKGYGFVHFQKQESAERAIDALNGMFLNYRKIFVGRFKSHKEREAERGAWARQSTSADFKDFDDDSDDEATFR
Oligonucleotide | 7-mer Z-score
CCAACCA | 0.017
ACUCCGU | -0.345
GGCUUCC | -0.365
CCGCGUG | -0.213
UGCCAAG | -0.141
GUCGCUU | -0.456
GAGUACG | -0.257
UGCCUUC | -0.391

Block 2
Target: Sal-like protein 4, full length isoform B (SALL4, Homo sapiens, UniProt Q9UJQ4-2, residues 1-616)
Method: universal PBM
Form: double-stranded DNA, one strand shown
Matrix: in vitro
Concentration: not given
Notes: 8-mer, flanks averaged, mean of replicates
Reading: higher = stronger binding
Residues (chain): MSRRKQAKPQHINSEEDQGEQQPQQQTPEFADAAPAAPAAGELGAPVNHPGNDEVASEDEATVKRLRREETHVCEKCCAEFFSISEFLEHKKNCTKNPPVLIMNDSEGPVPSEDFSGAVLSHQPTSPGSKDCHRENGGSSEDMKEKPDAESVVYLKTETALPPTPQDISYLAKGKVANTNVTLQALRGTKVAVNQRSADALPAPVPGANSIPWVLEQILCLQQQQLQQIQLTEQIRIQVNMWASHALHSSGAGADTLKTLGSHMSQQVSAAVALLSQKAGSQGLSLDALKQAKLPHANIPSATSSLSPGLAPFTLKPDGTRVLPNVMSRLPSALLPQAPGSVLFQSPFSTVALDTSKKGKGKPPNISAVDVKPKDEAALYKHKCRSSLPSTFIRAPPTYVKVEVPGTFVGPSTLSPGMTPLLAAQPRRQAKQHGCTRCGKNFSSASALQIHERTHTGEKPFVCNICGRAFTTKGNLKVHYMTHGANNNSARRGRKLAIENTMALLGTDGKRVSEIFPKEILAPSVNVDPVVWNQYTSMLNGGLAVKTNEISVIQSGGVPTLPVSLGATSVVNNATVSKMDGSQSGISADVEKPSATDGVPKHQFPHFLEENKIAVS
Oligonucleotide | E-score
CAAATCCC | -0.166
ATTACCGC | 0.114
AATACTAC | 0.268
ATAGTAAT | 0.323
CGTCGTAA | 0.00734
ACCTGATA | 0.166
AGTATTCC | 0.0733
ACATTGTC | 0.154

Block 3
Target: Hepatocyte nuclear factor 3-beta, forkhead domain (FOXA2, Homo sapiens, UniProt Q9Y261, residues 142-269)
Method: protein-binding microarray
Form: double-stranded DNA, one strand shown
Matrix: in vitro
Concentration: not given
Notes: k-mer, scored over probes, only values ≥0.25
Reading: higher = stronger binding
Target sequence (chain): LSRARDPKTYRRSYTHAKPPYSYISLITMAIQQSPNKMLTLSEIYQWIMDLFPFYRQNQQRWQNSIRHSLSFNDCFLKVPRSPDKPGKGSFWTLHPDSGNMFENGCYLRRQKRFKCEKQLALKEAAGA
Oligonucleotide | E-score
ATGTGTAC | 0.369
AATAATAT | 0.317
AATTATTG | 0.266
CTATATGC | 0.318
AGATGTAT | 0.311
ACAACCAG | 0.264
ACGTTTAC | 0.28
TACCACAA | 0.357

Mixed results
SMILES | target | observed | mode | concentration | reference | endpoint | result
Nc1ncnc2n[nH]c(Nc3ccc(F)cc3)c12 | Serine/threonine-protein kinase MRCK alpha (CDC42BPA, Homo sapiens, UniProt Q5VT25) | enzyme activity | inhibitor | 0.5 µM | control | remaining activity | 103%
